Results pooled from the literature.
Compare with care: the assays were run in different laboratories. ± gives the spread as reported.
ADRB2: Beta-2 adrenergic receptor (ADRB2, Homo sapiens, UniProt P07550)
UniProt P07550, sequence (whole entry, looked up): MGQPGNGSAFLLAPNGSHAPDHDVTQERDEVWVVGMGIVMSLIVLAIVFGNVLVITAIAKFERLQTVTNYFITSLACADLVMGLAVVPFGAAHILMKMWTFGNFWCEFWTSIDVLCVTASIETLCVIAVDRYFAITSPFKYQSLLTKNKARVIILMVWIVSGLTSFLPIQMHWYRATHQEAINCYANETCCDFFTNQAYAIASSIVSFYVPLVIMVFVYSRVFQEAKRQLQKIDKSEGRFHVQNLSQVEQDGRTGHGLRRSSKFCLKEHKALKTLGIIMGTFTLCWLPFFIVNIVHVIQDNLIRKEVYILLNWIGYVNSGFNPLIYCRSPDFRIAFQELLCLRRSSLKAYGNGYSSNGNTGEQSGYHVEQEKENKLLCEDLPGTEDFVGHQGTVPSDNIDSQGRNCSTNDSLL
Uncharacterized protein: Uncharacterized protein (Trypanosoma brucei brucei, UniProt Q386Q8)
Proteasome component C5/PSMB5: Proteasome component C5/PSMB5 (Homo sapiens, UniProt P20618+P28074)
UniProt P20618, sequence (whole entry, looked up): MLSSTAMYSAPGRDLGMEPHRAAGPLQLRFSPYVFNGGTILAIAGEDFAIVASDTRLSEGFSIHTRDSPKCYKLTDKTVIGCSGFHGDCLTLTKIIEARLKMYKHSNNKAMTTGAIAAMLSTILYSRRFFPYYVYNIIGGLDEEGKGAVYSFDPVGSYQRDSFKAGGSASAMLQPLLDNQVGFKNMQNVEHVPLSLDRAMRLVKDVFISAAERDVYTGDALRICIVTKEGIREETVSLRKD
UniProt P28074, sequence (whole entry, looked up): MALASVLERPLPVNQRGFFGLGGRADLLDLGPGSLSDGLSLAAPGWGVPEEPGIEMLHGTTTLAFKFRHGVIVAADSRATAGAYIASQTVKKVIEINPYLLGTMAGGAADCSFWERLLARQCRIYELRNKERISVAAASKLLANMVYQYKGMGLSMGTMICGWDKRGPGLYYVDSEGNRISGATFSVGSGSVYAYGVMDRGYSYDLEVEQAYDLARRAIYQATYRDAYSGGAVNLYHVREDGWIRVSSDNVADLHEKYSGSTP
PIK3CD: Phosphatidylinositol 4,5-bisphosphate 3-kinase catalytic subunit delta isoform (PIK3CD, Homo sapiens, UniProt O00329)
UniProt O00329, sequence (whole entry, looked up): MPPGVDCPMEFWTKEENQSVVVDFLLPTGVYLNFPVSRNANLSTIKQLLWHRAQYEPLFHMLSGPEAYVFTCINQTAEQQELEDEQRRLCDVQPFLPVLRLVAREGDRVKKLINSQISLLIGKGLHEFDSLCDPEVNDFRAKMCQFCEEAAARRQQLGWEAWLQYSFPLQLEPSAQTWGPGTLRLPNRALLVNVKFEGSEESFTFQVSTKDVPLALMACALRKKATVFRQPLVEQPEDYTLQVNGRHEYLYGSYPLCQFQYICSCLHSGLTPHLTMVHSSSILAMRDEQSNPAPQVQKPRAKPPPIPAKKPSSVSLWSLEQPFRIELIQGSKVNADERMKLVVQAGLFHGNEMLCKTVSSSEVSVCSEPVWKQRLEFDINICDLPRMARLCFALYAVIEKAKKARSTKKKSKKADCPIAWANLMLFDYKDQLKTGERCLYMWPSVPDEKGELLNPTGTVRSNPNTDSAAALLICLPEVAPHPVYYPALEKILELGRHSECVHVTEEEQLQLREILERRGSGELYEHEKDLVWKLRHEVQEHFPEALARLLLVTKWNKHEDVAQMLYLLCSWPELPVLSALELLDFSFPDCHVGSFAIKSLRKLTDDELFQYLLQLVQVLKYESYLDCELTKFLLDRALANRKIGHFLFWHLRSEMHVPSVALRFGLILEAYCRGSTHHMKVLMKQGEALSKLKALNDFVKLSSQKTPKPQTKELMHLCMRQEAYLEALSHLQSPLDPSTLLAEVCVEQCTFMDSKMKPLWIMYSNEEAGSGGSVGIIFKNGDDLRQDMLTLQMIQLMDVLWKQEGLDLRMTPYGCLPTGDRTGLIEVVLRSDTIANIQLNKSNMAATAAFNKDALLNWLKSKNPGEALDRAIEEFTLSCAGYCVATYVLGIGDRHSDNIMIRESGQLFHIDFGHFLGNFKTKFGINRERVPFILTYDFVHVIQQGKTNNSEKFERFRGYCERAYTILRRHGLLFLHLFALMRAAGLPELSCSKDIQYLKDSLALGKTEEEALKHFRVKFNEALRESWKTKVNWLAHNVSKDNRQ
TDP1: Tyrosyl-DNA phosphodiesterase 1 (TDP1, Homo sapiens, UniProt Q9NUW8)
glpG: Rhomboid protease GlpG (glpG, Escherichia coli, UniProt P09391)
UniProt P09391, sequence (whole entry, looked up): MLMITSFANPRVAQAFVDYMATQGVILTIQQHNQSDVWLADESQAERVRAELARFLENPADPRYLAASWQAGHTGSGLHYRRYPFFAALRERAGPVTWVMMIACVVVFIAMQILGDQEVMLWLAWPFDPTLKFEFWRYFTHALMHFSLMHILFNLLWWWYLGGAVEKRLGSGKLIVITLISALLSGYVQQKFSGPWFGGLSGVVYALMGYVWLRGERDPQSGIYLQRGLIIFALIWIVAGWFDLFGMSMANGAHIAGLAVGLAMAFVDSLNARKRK
NTSR1: Neurotensin receptor type 1 (NTSR1, Homo sapiens, UniProt P30989)
UniProt P30989, sequence (whole entry, looked up): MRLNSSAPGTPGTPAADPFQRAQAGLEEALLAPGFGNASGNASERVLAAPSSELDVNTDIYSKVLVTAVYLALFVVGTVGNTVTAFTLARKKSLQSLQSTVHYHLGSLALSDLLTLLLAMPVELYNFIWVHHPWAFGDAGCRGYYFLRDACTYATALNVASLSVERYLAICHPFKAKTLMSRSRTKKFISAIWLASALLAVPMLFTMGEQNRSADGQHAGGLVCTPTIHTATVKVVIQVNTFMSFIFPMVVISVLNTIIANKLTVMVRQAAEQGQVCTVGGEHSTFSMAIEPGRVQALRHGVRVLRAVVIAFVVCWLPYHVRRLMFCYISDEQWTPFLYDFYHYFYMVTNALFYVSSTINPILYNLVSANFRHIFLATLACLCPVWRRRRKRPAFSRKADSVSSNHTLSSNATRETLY
NNMT: Nicotinamide N-methyltransferase (NNMT, Homo sapiens, UniProt P40261)
UniProt P40261, sequence (whole entry, looked up): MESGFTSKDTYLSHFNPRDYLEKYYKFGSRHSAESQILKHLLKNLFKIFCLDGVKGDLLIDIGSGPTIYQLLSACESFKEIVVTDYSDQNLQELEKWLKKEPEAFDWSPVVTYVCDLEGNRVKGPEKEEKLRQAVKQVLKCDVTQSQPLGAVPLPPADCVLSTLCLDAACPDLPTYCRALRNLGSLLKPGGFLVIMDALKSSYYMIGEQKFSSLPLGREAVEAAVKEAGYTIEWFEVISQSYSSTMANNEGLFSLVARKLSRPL
CYP2C19: Cytochrome P450 2C19 (CYP2C19, Homo sapiens, UniProt P33261)
UniProt P33261, sequence (whole entry, looked up): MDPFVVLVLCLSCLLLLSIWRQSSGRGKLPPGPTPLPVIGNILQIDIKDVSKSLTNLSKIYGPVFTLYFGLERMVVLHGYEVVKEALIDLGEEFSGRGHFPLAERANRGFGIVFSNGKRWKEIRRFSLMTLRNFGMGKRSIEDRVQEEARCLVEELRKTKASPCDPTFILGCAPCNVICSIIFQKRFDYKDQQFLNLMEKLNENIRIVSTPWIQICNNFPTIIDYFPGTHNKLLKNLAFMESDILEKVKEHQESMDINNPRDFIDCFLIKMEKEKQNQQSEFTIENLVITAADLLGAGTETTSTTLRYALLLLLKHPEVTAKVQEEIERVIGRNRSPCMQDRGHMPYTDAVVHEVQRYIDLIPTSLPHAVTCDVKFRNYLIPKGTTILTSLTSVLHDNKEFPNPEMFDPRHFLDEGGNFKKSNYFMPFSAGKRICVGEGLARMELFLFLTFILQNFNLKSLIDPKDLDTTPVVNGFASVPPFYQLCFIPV
Gria1: Glutamate receptor 1 (Gria1, Rattus norvegicus, UniProt P19490)
UniProt P19490, sequence (whole entry, looked up): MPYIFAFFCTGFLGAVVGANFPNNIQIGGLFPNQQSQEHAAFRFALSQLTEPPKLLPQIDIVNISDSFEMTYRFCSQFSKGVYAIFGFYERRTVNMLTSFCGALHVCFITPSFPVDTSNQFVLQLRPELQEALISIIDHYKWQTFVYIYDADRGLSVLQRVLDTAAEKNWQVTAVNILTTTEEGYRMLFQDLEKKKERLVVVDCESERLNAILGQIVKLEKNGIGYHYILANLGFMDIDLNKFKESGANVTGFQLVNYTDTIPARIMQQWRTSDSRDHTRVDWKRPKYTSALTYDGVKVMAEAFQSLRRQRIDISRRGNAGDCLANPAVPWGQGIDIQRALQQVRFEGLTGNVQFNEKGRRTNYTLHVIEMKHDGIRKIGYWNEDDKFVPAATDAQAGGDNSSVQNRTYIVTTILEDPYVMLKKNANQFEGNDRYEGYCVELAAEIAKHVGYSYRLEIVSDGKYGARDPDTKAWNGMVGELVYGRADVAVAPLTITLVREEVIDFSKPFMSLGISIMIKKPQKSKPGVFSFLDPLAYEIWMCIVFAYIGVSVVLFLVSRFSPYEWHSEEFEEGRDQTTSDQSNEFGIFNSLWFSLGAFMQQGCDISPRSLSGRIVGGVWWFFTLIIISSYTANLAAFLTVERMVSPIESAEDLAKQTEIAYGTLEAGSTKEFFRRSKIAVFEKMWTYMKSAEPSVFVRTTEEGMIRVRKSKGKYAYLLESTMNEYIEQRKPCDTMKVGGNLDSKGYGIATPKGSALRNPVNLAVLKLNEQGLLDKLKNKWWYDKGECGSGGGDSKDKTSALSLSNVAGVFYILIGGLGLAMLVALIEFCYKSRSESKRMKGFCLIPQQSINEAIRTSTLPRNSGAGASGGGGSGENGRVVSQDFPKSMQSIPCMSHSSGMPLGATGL
ppa: Inorganic pyrophosphatase (ppa, Escherichia coli, UniProt P0A7A9)
UniProt P0A7A9, sequence (whole entry, looked up): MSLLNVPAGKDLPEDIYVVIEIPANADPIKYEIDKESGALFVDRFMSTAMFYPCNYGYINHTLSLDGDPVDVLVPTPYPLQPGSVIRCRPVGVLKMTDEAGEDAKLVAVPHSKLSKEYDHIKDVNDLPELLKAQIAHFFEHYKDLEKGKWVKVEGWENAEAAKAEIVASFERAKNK
UniProt Q9UH17, sequence (whole entry, looked up): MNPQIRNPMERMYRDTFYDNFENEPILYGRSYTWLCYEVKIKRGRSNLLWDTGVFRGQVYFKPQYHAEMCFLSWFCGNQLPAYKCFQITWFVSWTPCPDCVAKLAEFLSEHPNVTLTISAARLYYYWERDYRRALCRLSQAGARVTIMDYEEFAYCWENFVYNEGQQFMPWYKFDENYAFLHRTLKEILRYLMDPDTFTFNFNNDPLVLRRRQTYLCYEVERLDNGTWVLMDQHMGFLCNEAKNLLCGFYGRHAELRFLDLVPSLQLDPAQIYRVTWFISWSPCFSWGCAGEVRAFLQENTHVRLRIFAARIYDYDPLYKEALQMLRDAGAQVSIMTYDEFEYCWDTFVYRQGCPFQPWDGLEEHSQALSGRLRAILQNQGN

O=c1cnnc(Nc2ccc(O)cc2)[nH]1 — IC50 (DNA dC->dU-editing enzyme APOBEC-3B, C-terminal domain (Homo sapiens, UniProt Q9UH17); deaminase activity, inhibitor, UDG-coupled deamination): 1190 ± 45 µM
Fc1ccc(Nc2nc(NC3CCCCC3)c3ccccc3n2)cc1 — IC50 (ADRB2; cAMP production, antagonist, GloSensor; together with: isoproterenol 1 µM): > 50 µM
O=C1C(O)=C(O)C(=O)C(O)=C1O — IC50 (Protein tyrosine phosphatase type IVA 3, with CNNM4 CBS domain (PTP4A3, Homo sapiens, UniProt O75365); protein-protein interaction, inhibitor, HTRF): 2.4 µM
Cc1ccc2c(c1Br)C(O)(CC(=O)c1ccc(F)cc1)C(=O)N2 (centres unmarked) — IC50 (Uncharacterized protein; inhibitor, coupled colorimetric; Trypanosoma brucei): > 100 µM
COc1ccc(Nc2cc(NC3CC3)n3ncc(C#N)c3n2)cc1 — IC50 (SGK3 (Homo sapiens, UniProt Q96BR1); inhibitor): > 10 µM
CC(C)(C)NC(=O)CC(NC(=O)CCc1ccccc1)C(=O)NCCNC(=O)c1cccc(-c2ccccc2)c1 (centres unmarked) — IC50 (Proteasome component C5/PSMB5; enzyme activity, inhibitor; constitutive proteasome β5c): 0.326 µM
CN(C)c1nc(NCc2ccc(F)cc2)c(/N=N/c2ccc(Cl)cc2)c(N(C)C)n1 — IC50 (Chitinase (OfChi-h, Ostrinia furnacalis, UniProt Q4AE59); enzyme activity, inhibitor, fluorescence): 0.1 µM
O=C1/C(=N\c2ccc(Cl)cc2Br)c2ccccc2N1C(=O)c1ccccc1Br — IC50 (PIK3CD; enzyme activity, inhibitor, ADP detection): 0.00297 µM
COc1ccc(C2=Nn3c(nnc3C3CCCCC3)SC2)cc1OC — IC50 (Uncharacterized protein; inhibitor, coupled colorimetric; Trypanosoma brucei): 98.8 µM
Cc1nn2c(C(F)(F)F)ccnc2c1C=NOCc1ccc(-c2nc3cc(-c4ccccc4)ccn3c2Nc2ccc(C(=O)O)cc2)cc1 (mixture of isomers) — inhibition (TDP1; enzyme activity, inhibitor; 100 µM, unpurified compound): 62.6%
CN1CCC[C@@H]1C(=O)N[C@@H](Cc1ccc(-c2ccccc2)cc1)B(O)O — IC50 (Proteasome component C5/PSMB5; enzyme activity, inhibitor; HEPES buffer, together with: Ac-WLA-AMC, PA28αβ): 0.085 ± 0.015 µM
CC(C)c1ccc(/C=C/C(=O)c2ccc(S(C)(=O)=O)cc2)cc1 — IC50 (MAOB (Homo sapiens, UniProt P27338); enzyme activity, inhibitor): 5.03 µM
O=C(CCNC(=O)CNC(=O)CC(c1ccccc1)(c1ccccc1)c1ccccc1)NCC1CCN(C(=O)c2ccc(F)cc2)CC1 — IC50 (CHRM5 (Homo sapiens, UniProt P08912); ligand displacement, radioligand; cell membranes): > 30 µM
N[C@@H](Cc1c[nH]c2ccc(OCc3ccccc3-c3ccsc3)cc12)C(=O)O — IC50 (SLC7A5 (Homo sapiens, UniProt Q01650); transporter uptake, inhibitor, radiometric): 5.52 µM
O=C1CC(c2ccccc2)N1S(=O)(=O)c1cccc(Cl)c1 (centres unmarked) — IC50 (glpG; enzyme activity, inhibitor): 2.7 µM
Clc1cccc(Nc2nc(NC3CCCCC3)c3ccccc3n2)c1 — IC50 (ADRB2; cAMP production, antagonist, GloSensor; together with: isoproterenol 1 µM): > 50 µM
CCOc1cc(CN2CCC3(CC2)CN(c2ccc(C(=O)O)cc2)C(=O)N3)c(C2CC2)cc1C — IC50 (SSTR5 (Homo sapiens, UniProt P35346, F201A); cAMP level, antagonist, GloSensor; AD293; F201A mutant, bandwidth 5.38, together with: CST17 EC80 and forskolin): 0.00708 µM
O=C(CC1(O)C(=O)Nc2cc(Cl)cc(Cl)c21)c1ccc2c(c1)OCO2 (centres unmarked) — IC50 (Uncharacterized protein; inhibitor, coupled colorimetric; Trypanosoma brucei): 348 µM
CCC1(O)CCCN(C(=O)c2cccc(C#N)c2)C1 (centres unmarked) — IC50 (DNA dC->dU-editing enzyme APOBEC-3B (Homo sapiens, UniProt Q9UH17); enzyme activity, inhibitor, HPLC): 591 µM
COc1ccccc1C1CCN(c2nc(C3CC3)nc3c(C)cc(N(C)CCO)cc23)CC1 — IC50 (NTSR1; G protein activation, antagonist): 2.57 µM
Cc1ccc(C(N)=O)cn1 — IC50 (NNMT; enzyme activity in cells, inhibitor): 7.94 µM
C=CC(=O)N1[C@H](c2ccc3c(c2)OCO3)c2[nH]c3cc(C#Cc4ccccc4)ccc3c2C[C@H]1C(=O)OC — IC50 (GrpE protein homolog 1, mitochondrial (GRPEL1, Homo sapiens, UniProt Q9HAV7); target engagement, inhibitor, competitive gel-based ABPP; HCT-116): 2 µM
COc1cccc(OC)c1-c1cc(C(=O)NC2(C(=O)O)C3CC4CC(C3)CC2C4)nn1-c1ccc(C(=O)N(C)CCCN(C)CCCN(C)C(=O)[C@H](CCCCNC(=O)[C@H](CC(C)C)NC(=O)C2OC2C(=O)O)NC(=O)CN2CCN(CC(=O)O)CCN(CC(=O)O)CCN(CC(=O)O)CC2)cc1C(C)C (mixture of isomers) — IC50 (NTSR1; ligand displacement, radioligand): 0.015 µM
CC(C)(C)n1ncc2c(=O)n(Cc3cccc(F)c3)c(NCc3ccc(F)cn3)nc21 — IC50 (CYP2C19; enzyme activity, inhibitor; human liver): > 15 µM
Fc1ccc(Nc2nc(NC3CCCCC3)c3ccccc3n2)cc1Cl — IC50 (ADRB2; cAMP production, antagonist, GloSensor; together with: isoproterenol 1 µM): 26 ± 11 µM
COC(=O)Cc1cc2c(cc1C(=O)c1ccccc1Br)OCO2 — IC50 (Gria1; glutamate-evoked current, inhibitor, whole-cell patch clamp; HEK293T, homomeric receptor): 5.5 µM
Cc1nc(Nc2ccc3c(c2)/C(=C/c2cn(C)c4ccccc24)C(=O)N3C)c2ccccc2n1 — IC50 (PIK3CD; enzyme activity, inhibitor, ADP detection): 0.773 µM
COc1ccc2c(c1OC)C(=O)N(c1ccc(OC(F)(F)F)cc1)C2 — IC50 (Uncharacterized protein; inhibitor, coupled colorimetric; Trypanosoma brucei): > 100 µM
Cc1nn(-c2cccc(N)c2)c(=O)c2cnc(Nc3ccc(N4CCNCC4)cc3)nc12 — IC50 (SRC (Homo sapiens, UniProt P12931); enzyme activity, inhibitor): 1.24 µM
Cc1ccc2c(c1Br)C(O)(CC(=O)c1ccc(C3CCCCC3)cc1)C(=O)N2 (centres unmarked) — IC50 (ppa; enzyme activity, inhibitor): > 100 µM
O=C1CC(c2ccccc2)N1S(=O)(=O)c1ccc(-c2ccc(Cl)cc2)cc1 (centres unmarked) — IC50 (glpG; substrate cleavage, inhibitor; NR698): 7.3 µM
O=C(NC1CCC(F)(F)CC1)C(c1cncnc1)N(C(=O)C(F)Cl)c1ccc(OC(F)(F)F)cc1 (centres unmarked) — IC50 (CYP2C19; enzyme activity, inhibitor; 10 (unit not given)): 40.4 µM
NC(=O)c1ccc(C(=O)NOCc2ccc(Sc3cccc(Cl)c3)c(C(F)(F)F)c2)cc1 — IC50 (CYP2C19; pooled human liver microsomes; 20 min): > 30 µM
C[N+](C)(CCCN1c2ccccc2CCc2ccc(Cl)cc21)CC(=O)c1ccccc1 — IC50 (ppa; inhibitor, counter-screen, coupling enzyme alone): 52.5 µM
COc1ccccc1C1CCN(c2nc(C3(F)CC3)nc3cc(Cl)c(N(C)CCO)cc23)CC1 — IC50 (NTSR1; G protein activation, antagonist, BRET): 5.56 µM
COc1ccc(OC)c(C2=Nn3c(nnc3-c3ccco3)SC2)c1 — IC50 (Uncharacterized protein; inhibitor, coupled colorimetric; Trypanosoma brucei): > 100 µM
COC(=O)Cc1cc2c(cc1C(=O)c1ccccc1I)OCO2 — IC50 (Gria1; glutamate-evoked current, inhibitor, whole-cell patch clamp; HEK293T, homomeric receptor): 6.03 µM
CN(C)c1ccc(C=NOCc2ccc3nc(-c4ccccc4)c(Nc4ccc(C(=O)O)cc4)n3c2)cc1 — inhibition (TDP1; enzyme activity, inhibitor; 100 µM, unpurified compound): 62.9%
COc1ccc(C(N)=O)c[n+]1C — IC50 (NNMT; enzyme activity, inhibitor): 0.398 µM
CN1C(=O)/C(=N\c2ccc(Cl)cc2Br)c2ccccc21 — IC50 (PIK3CD; enzyme activity, inhibitor, ADP detection): 0.0894 µM
c1ccc(C2=Nn3c(nnc3C3CCCCC3)SC2)cc1 — IC50 (ppa; enzyme activity, inhibitor): > 100 µM
